Measurements collected from several papers.
Each numbered part is a random draw from the data of one study; scales do not carry over between parts.

Block 1 — method: aptamer microarray, sandwich; molecule type: DNA with 2'F-ANA; matrix: in vitro; tested at: 200 nM; together with: Cy3 exosite-II aptamer, 400 nM; reading: higher = stronger binding; quantity: mean fluorescence intensity; oligonucleotide: GGTTGGTGTGGTTGG
Target: Prothrombin, mature alpha-thrombin (F2, Homo sapiens, UniProt P00734)
Notes: whole 15-mer aptamer, many near background
2'F-ANA at 1 7 8 10 12 14 15: 49 a.u.
2'F-ANA at 1 2 4 6 7 12 13 14: 55.6 a.u.
2'F-ANA at 3 4 5 13: 65.1 a.u.
2'F-ANA at 3 5 7 9 11 12 13: 161 a.u.
2'F-ANA at 1 2 4 5 8 9 10 15: 43.4 a.u.
2'F-ANA at 4 5 6 7 8 11 14 15: 45.6 a.u.
2'F-ANA at 3 5 6 8 9 10 12: 63.4 a.u.
2'F-ANA at 5 7 9 12 13: 107 a.u.
2'F-ANA at 1 3 4 5 11 13 14 15: 48 a.u.
2'F-ANA at 2 3 4 6 11 12: 657 a.u.
2'F-ANA at 3 8 10 15: 586 a.u.
2'F-ANA at 2 3 6 12 13 14 15: 376 a.u.
2'F-ANA at 4 12 13: 430 a.u.
2'F-ANA at 1 2 3 7 9 11 14: 66.6 a.u.
2'F-ANA at 9 10 13 14: 116 a.u.
2'F-ANA at 1 2 13 14: 49.8 a.u.
2'F-ANA at 1 2 6 8 11 12 13 14: 64.8 a.u.
2'F-ANA at 1 3 4 5 7 8 9 11 13 15: 59.8 a.u.

Block 2 — method: competition protein-binding microarray; molecule type: double-stranded DNA, one strand shown; matrix: in vitro; tested at: 2 µM; together with: Cbf1 competitor, 0.05 µM; reading: higher = stronger binding; quantity: fluorescence intensity; shared flanks, not repeated: … GTCTTGATTCGCTTGACGCTGCTG
Target: Phosphate system positive regulatory protein PHO4, full length, GST-tagged (PHO4, Saccharomyces cerevisiae, UniProt P07270, residues 1-312)
Notes: whole 60-bp probe, lowest competitor level
Construct (chain): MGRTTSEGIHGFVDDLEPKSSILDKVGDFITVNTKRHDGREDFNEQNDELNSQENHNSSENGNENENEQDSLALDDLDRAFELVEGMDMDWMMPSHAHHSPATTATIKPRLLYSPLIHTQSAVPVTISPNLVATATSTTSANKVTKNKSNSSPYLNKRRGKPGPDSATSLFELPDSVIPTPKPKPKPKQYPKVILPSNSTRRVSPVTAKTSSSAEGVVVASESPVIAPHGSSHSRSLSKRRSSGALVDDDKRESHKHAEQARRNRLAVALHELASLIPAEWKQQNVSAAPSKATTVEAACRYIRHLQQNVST
GAAGATAGCCACCATCACGTGAAGGCCATCCCAAGA: 11200 a.u.
AAATTACTAAGTTGGTTTGTGGGTGACGCCGTATGA: 3860 a.u.
CGTCCTAGTGATTGTGTCGTGGGTGCCATGAGGAAG: 8750 a.u.
CGGGGTTAAGTTTGGTGCGTGGGTGGCTTGCAGCAG: 8600 a.u.
CTTCTGTAAATTTTTCACGTGTCGTGAAGCGCCCCG: 11100 a.u.
CGTCCTAGTGATTTTCACGTGAGGTCCATGAGGAAG: 9360 a.u.
TGCGCAACAACTTGCAAGGTGGGTGTATGTCTAGAA: 5130 a.u.
TATTGCGGTTGTTGCCACGCTTGTCGCCAGGGTTGT: 6110 a.u.
AAAGCGGTAATTTGTCACGTCACTTCACATATCTAT: 4390 a.u.
CAGGCTGGTCGACCTCACGGGCGCTGATCGCGGCAA: 4230 a.u.
AGACAGTACGATAGCGACGTGCCAGTGTTATTGATG: 7780 a.u.
CGTCCTAGTGATTGGACGGTGGGTGCCATGAGGAAG: 7470 a.u.
ATGCTGGGGATGAAACACGTTGGACGTTTTGGGGCG: 10900 a.u.
GATTTGAATACAACCGTCGTGCCGAACATCGCGGTT: 6900 a.u.
TCGCAGATGCCATATCCCGTGCCGAATATACTATAA: 9630 a.u.
TCCGCACACAGAGGTTATGTGACGGTGGTAACCGTA: 4750 a.u.
CATACCCAACCTTGCGTTGTGGGTGAAGATATTTGT: 4910 a.u.
TGATTGTGGAATTGGCAGGCGTGAAGTTCAAATCCG: 4280 a.u.
TATATGTAGTATCCACACGTGGACGACCATTAACGA: 14800 a.u.
TTTTTCTTTTGATATACCGTGATGGCTCTGATAGGT: 4330 a.u.
CATACCCAACCTTGTCACAAGACTTAAGATATTTGT: 4170 a.u.
CGTCCTAGTGATTGGTGGGTGGGTGCCATGAGGAAG: 8290 a.u.
GTCTCCATCTTCTTCCACGGGGGCTAGAACACCATC: 8080 a.u.
CTTTCCCGATCTTTTCACGTGGACTTAGCACATTTG: 13100 a.u.
AAATTACTAAGTTGAGTAGTGGGTGACGCCGTATGA: 4080 a.u.

Block 3 — method: protein binding microarray; molecule type: double-stranded DNA, one strand shown; matrix: in vitro; tested at: not given; baseline: not given; reading: higher = stronger binding; quantity: E-score
Target: Histone acetyltransferase KAT6A, both winged helices, GST fusion (KAT6A, Homo sapiens, UniProt Q92794, residues 1-181)
Notes: 8-mer, flanks averaged, mean of 2 arrays, mostly near background
Target sequence (chain): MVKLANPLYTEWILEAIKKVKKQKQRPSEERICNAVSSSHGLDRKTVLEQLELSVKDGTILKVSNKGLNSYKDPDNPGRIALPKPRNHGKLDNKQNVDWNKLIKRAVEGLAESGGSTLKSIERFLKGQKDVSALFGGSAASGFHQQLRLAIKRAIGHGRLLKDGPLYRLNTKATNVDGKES
AGGTTCAT: -0.111
AGACCCCA: -0.149
CAGAATAA: -0.0811
TAGACATA: -0.0419
GGATCGAC: -0.0871
GCAGGTCC: -0.0261
AACATAAG: 0.00388
GTAAACAA: -0.0383
ACCATCGA: -0.215
ACACGGGT: 0.209
GCACGGGA: 0.206
CCGCGCCG: 0.361
GATATATA: -0.00187
TCCATTAA: -0.0377
AATACGTA: 0.0403
AACGTGAC: 0.0134
GGCGAGCA: 0.0817
AAGTGGTC: -0.141

Block 4 — target: UBE2D1 UBC core domain (UniProt P51668); method: yeast two-hybrid; matrix: yeast; notes: mostly zero background; baseline: not given; reading: higher = stronger interaction; quantity: lacZ reporter activity
UniProt P51668, sequence (whole entry, looked up): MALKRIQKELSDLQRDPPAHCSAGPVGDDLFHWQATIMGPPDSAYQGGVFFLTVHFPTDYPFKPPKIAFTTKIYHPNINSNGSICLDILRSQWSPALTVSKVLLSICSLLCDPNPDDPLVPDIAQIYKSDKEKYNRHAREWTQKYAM
B1: DZIP3 RING domain (UniProt Q86Y13); chain PDEEEEEEEPCVICHENLSPENLSVLPCAHKFHAQCIRPWLMQQGTCPTCRLHVLLPEEFP
B2: SH3RF1 RING domain (UniProt Q7Z6J0); chain DESALLDLLECPVCLERLDASAKVLPCQHTFCKRCLLGIVGSRNELRCPECRTLVGSGVEEL
B3: RNF133 RING domain (UniProt Q8WVZ7); chain DEEINPNGDSCVICFERYKPNDIVRILTCKHFFHKNCIDPWILPHGTCPICKCDILKVLGIQ
B4: MAP3K1 RING domain (UniProt Q13233); chain NSIKDEEEQMCPICLLGMLDEESLTVCEDGCRNKLHHHCMSIWAEECRRNREPLICPLCRSKWRSHDFYS
B5: SYTL4 RING domain (UniProt Q96C24); chain RGSQHYSDRTCARCQESLGRLSPKTNTCRGCNHLVCRDCRIQESNGTWRCKVCAKEIELKKAT
B6: MDM4 RING domain (UniProt O15151); chain MEDCQNLLKPCSLCEKRPRDGNIIHGRTGHLVTCFHCARRLKKAGASCPICKKEIQLVIKVF
B7: TRIM62 RING domain (UniProt Q9BVG3); chain MACSLKDELLCSICLSIYQDPVSLGCEHYFCRRCITEHWVRQEAQGARDCPECRRTFAEPALAP
FDGDVDPDLKCALCHKVLEDPLTTPCGHVFCAGCVLPWVVQEGSCPARCRGRLSAKELN (PDZRN3 RING domain (UniProt Q9UPQ7)): 0
AMYLQENGIDCPKCKFSYALARGGCMHFHCTQCRHQFCSGCYNAFYAKNKC (RNF31 RING domain (UniProt Q96EP0)): 0
B1 (DZIP3 RING domain): 0
YQNEVDDDLVCHICLQPLLQPLDTPCGHTFCYKCLRNFLQEKDFCPLDRKRLHFKLCKK (LNX2 RING domain (UniProt Q8N448)): 0
B2 (SH3RF1 RING domain): 0
B3 (RNF133 RING domain): 5780
B4 (MAP3K1 RING domain): 14700
PEDRESLKSACVVCLSSFKSCVFLECGHVCSCTECYRALPEPKKCPICRQAITRVIPLY (MUL1 RING domain (UniProt Q969V5)): 14100
NLSELTPYILCSICKGYLIDATTITECLHTFCKSCIVRHFYYSNRCPKCNIVVHQTQPLY (PCGF6 RING domain (UniProt Q9BYE7)): 0
B5 (SYTL4 RING domain): 0
B6 (MDM4 RING domain): 0
B7 (TRIM62 RING domain): 0

Block 5 — method: protein-binding microarray; molecule type: double-stranded DNA, one strand shown; matrix: in vitro; tested at: not given; reading: higher = stronger binding; quantity: E-score
Target: Protein max, full length (MAX, Homo sapiens, UniProt P61244-2, residues 1-151)
Notes: k-mer, scored over probes, only values ≥0.25
AAGCACGC: 0.421
CCACGCGG: 0.482
CCCCCACG: 0.377
CTCCACGA: 0.266
CATGTCAG: 0.299
CCAGGTGA: 0.27
ACGCGTGG: 0.46
CGTGAACC: 0.255
GGCATGTA: 0.26
ACGCGTTC: 0.307
AGTCACAC: 0.333
CGTGGTAC: 0.372
ACGTGTGC: 0.466
GAGCACAC: 0.348
ACATGCGG: 0.454
ACTTGCAC: 0.259
AGACACGC: 0.404
ACCATGGG: 0.321
ATGCCCAC: 0.317
AGCACAAG: 0.279
GGCATGCA: 0.39
CGTCCACG: 0.351
AGCGTGAA: 0.305

Block 6 — method: universal PBM; molecule type: double-stranded DNA, one strand shown; matrix: in vitro; tested at: not given; reading: higher = stronger binding; quantity: E-score
Target: Sal-like protein 4, full length isoform B (SALL4, Homo sapiens, UniProt Q9UJQ4-2, residues 1-616)
Notes: 8-mer, flanks averaged, mean of replicates
GGCATGAA: 0.0026
AATACATC: 0.249
AGAAATCT: 0.232
CACGGCCA: -0.304
CAAGGATC: 0.0477
AGTCTACG: -0.0881
CACGGCGG: -0.227
AGCCCCAT: -0.137
CTTGATTC: 0.105
AATACGGA: 0.201
CTTAACGC: -0.169
GTAGCCAC: -0.17
GCCGAGGA: -0.101
ACAGTTCA: 0.151
ACGACATG: 0.00988
GCCGCTTA: -0.161
AAAAATGT: 0.22
CCCGGCTC: -0.391
ACAAGTGT: -0.0418
CACACCGA: -0.117
ATGCAGCA: -0.0647
AGACGTTG: -0.0469
ATTGCCCC: 0.0283
GGTCGTAA: 0.128
GATACGGA: 0.0888

Excerpt of the above (block 4):
FDGDVDPDLKCALCHKVLEDPLTTPCGHVFCAGCVLPWVVQEGSCPARCRGRLSAKELN (PDZRN3 RING domain (UniProt Q9UPQ7)): 0
AMYLQENGIDCPKCKFSYALARGGCMHFHCTQCRHQFCSGCYNAFYAKNKC (RNF31 RING domain (UniProt Q96EP0)): 0
B1 (DZIP3 RING domain): 0
YQNEVDDDLVCHICLQPLLQPLDTPCGHTFCYKCLRNFLQEKDFCPLDRKRLHFKLCKK (LNX2 RING domain (UniProt Q8N448)): 0
B2 (SH3RF1 RING domain): 0
B3 (RNF133 RING domain): 5780
B4 (MAP3K1 RING domain): 14700
PEDRESLKSACVVCLSSFKSCVFLECGHVCSCTECYRALPEPKKCPICRQAITRVIPLY (MUL1 RING domain (UniProt Q969V5)): 14100
NLSELTPYILCSICKGYLIDATTITECLHTFCKSCIVRHFYYSNRCPKCNIVVHQTQPLY (PCGF6 RING domain (UniProt Q9BYE7)): 0
B5 (SYTL4 RING domain): 0
B6 (MDM4 RING domain): 0
B7 (TRIM62 RING domain): 0
